Published values of several laboratories.
Each numbered part is a random draw from the data of one study; scales do not carry over between parts.

Series 1
Target: RING finger protein unkempt homolog, zinc fingers 1-6, GST-SBP tag (UNK, Homo sapiens, UniProt Q9C0B0, residues 30-357)
Method: RNA Bind-n-Seq
Molecule type: RNA
Matrix: in vitro
Concentration: not given
Setting: RNA with constant flanks, human-mouse chimeric sites, ends assumed
Baseline: input RNA pool
Direction: higher = stronger binding
Constant ends, left off below: GGGAGUUCUACAGUCCGACGAUC … CAACAGAGGAUUGAGCAUCA
Construct (chain): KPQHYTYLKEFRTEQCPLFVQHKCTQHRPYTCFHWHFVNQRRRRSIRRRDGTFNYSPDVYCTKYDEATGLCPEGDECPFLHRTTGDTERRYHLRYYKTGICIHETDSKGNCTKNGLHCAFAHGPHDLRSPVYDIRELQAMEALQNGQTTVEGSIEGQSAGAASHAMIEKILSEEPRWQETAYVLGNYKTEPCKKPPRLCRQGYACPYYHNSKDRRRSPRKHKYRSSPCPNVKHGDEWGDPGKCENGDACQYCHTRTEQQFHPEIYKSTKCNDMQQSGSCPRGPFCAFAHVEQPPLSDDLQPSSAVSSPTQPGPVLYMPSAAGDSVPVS
With `UAAGUCCAUUUGUAAGCCUUCGCUCAUAAAGUUUUAAAUUCUGGACCAAUAGUGUUUGUUUCCUGAUUAUUGUAUCCAAUACUUUGCGUACUAUGUGACUCACUCUUACUGAUAAUAAAA` the bound/input enrichment was 0.395 ratio.
`CACACCCUCUUCUGCGGGACCCUCAUCUUGCAGGCCCGGGCCUAUGUGGGACCGCACGUGCUAGCAGUGGUGACCCGCACAGGGUUCUGCACGGCAAAAGGGGGCCUGGUGAGCUCCAUC` has a bound/input enrichment of 0.0857 ratio.
For `GGCCUGGGACCGUCCUGGGCUAGUACAAUAGCGGCAGGUGGAGGCUCGAGAGGAAAGUUGUUAGUGGGAGGCAGUGGUAGAGGCCGUCAUGUACGGUCCUUUACUCGAUAGAUGUGUUCU`, the bound/input enrichment was 0.528 ratio.
`UAAGUUAUUUUGUACAGUAAGUUAUUUUCUUAACAUUUUUAUAUUGCCAUGUUUAUUUUGUUUGGGUAAUUUGGUUCAUACAUGGCCUAGCUAAGGUAAUGAACAUCUUUUUCAGUAAUU` gave a bound/input enrichment of 2.34 ratio.
`UCUGGUCACACUCGUGUGUAUGGUGUUUGCUUUGUGGACACUUCACUGGGCAAGUUUUUCAUCGGCCAGUUUUCGGAUGAUCGCCAUUGUUCCAGAUUUAGGACGCUAGUGGCACACUAU` gave a bound/input enrichment of 0.192 ratio.
For `CUGGCCUGGCCCUCCCCAGGGGCCUCCUUUCGUAUAGUCACUGCUUCUGCAUCAGAUACUUUCAGCUGCAACUCCCUGCAGGGUGGGGCACCCAUUUCAGGCAGAAGUUGGUGCCCCCCU`, the bound/input enrichment was 0.162 ratio.

Series 2
Target: Interferon regulatory factor 3, full length, phosphomimetic (IRF3, Homo sapiens, UniProt Q14653, residues 1-427, S386D/S396D/S398D/S402D/T404D/S405D)
Chain of UniProt Q14653 (whole entry, unmodified, looked up): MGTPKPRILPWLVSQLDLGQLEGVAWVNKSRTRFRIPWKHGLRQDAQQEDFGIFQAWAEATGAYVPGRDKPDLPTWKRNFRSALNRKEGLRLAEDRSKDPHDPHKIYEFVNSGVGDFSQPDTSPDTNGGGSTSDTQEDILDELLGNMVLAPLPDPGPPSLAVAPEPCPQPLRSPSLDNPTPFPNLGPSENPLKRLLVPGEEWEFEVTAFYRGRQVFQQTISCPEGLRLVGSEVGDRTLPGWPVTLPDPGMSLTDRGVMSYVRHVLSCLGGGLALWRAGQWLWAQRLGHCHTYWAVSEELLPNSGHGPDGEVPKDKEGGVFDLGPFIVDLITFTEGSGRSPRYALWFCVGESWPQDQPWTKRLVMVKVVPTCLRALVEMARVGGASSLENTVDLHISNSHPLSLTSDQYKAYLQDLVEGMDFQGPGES
Method: protein-binding microarray
Molecule type: double-stranded DNA, one strand shown
Matrix: in vitro
Concentration: 2540 nM top
Setting: 60-bp whole probe
With: salmon DNA 0.4 mg/ml
Baseline: random background probes
Direction: higher = stronger binding
Constant ends, left off below: GCCTAGCAC … GTCTTGATTCGCTTGACGCTGCTG
`GACGATTTCAGATTGGAGACGTGCTAG` — result for “fitted relative affinity”: 1.88 z-score.
`CTAGTTTTCATTTTCTGAATGTGCTAG`: “fitted relative affinity” 5.51 z-score.
Under “fitted relative affinity”, `TTTGGACTGGGACTGGGTTAGTGCTAG` is recorded as -1.02 z-score.
`TTCGAACTGAGACTGGATTAGTGCTAG` — result for “fitted relative affinity”: -0.284 z-score.
`GACGGTTCCCTTTTCCCGACGTGCTAG`: “fitted relative affinity” 6.44 z-score.
For `GACGGACTGCTTTTCGTGACGTGCTAG`, “fitted relative affinity” read -0.158 z-score.
Under “fitted relative affinity”, `TCAGTTTTCCTTCATGTACTGTGCTAG` is recorded as 4.07 z-score.
`TACGATTTCGGGTATCGAGACGTGCTA`: “fitted relative affinity” 1.34 z-score.
`TTAGATCTCAGTATCGATTTGTGCTAG`: “fitted relative affinity” 1.84 z-score.
`TTAGATCTCAGACTGGATTGGTGCTAG` — result for “fitted relative affinity”: -0.137 z-score.

Series 3
Target: Sal-like protein 4, full length isoform B (SALL4, Homo sapiens, UniProt Q9UJQ4-2, residues 1-616)
Method: universal PBM
Molecule type: double-stranded DNA, one strand shown
Matrix: in vitro
Concentration: not given
Setting: 8-mer, flanks averaged, mean of replicates
Direction: higher = stronger binding
`AGTATTAA` gave an E-score of 0.355.
The E-score of `CCGTGCGA` is reported as -0.0486.
`CACGGATA` gave an E-score of 0.0928.
For `ACCATAGT`, the E-score was 0.0754.
With `GCGTAGGA` the E-score was -0.152.
With `GGACACCA` the E-score was -0.0323.
With `CCCATCGC` the E-score was -0.25.
`ATTCCATG` gave an E-score of -0.106.
`GAGGATAC` has an E-score of 0.105.
For `GAAAACGC`, the E-score was 0.0227.

Single results of other studies
`PhoQ, residues 284 288 289 292 302 303 SLSVQF` has a fold induction of 6.8 (PhoP, residues 12 14 15 18 19 TQCLL (Escherichia coli, UniProt P23836); Sort-seq, item: YFP reporter; E. coli; PhoQ-PhoP variant library, with: 10 µM Mg2+; baseline: high Mg2+ state, higher = stronger signaling).
